Published values from different studies.
Every numbered part comes from another study and shows a few of its results, in no order.

Set 1
Target: Prothrombin, mature alpha-thrombin (F2, Homo sapiens, UniProt P00734)
Technique: aptamer microarray, sandwich
Molecule type: DNA with 2'F-ANA
Matrix: in vitro
Tested at: 200 nM
Notes: whole 15-mer aptamer, many near background
Added: Cy3 exosite-II aptamer, 400 nM
Reading: higher = stronger binding
Strand: GGTTGGTGTGGTTGG
Modification | mean fluorescence intensity [a.u.]
2'F-ANA at 1 2 6 9 13 14 15 | 53.1
2'F-ANA at 2 3 4 5 7 9 11 13 15 | 60.7
2'F-ANA at 1 2 5 8 10 12 15 | 48.8
2'F-ANA at 2 3 5 6 7 8 10 11 12 13 14 | 53.2
2'F-ANA at 1 2 4 5 8 10 11 12 13 15 | 47
2'F-ANA at 1 5 6 7 11 13 15 | 48.3
2'F-ANA at 1 2 4 7 9 10 13 14 15 | 48.8
2'F-ANA at 4 5 6 7 9 10 14 15 | 61.9
2'F-ANA at 3 4 6 7 8 11 15 | 560
2'F-ANA at 2 3 4 8 10 11 12 14 15 | 171
2'F-ANA at 1 2 4 8 9 12 14 | 73.4
2'F-ANA at 1 3 7 9 13 14 15 | 128
2'F-ANA at 1 2 4 9 10 11 13 14 | 54
2'F-ANA at 3 5 10 11 13 | 126
2'F-ANA at 1 2 3 4 6 7 11 | 133
2'F-ANA at 6 7 9 10 12 14 | 109
2'F-ANA at 2 3 4 6 8 10 11 12 15 | 289
2'F-ANA at 1 2 5 6 8 9 10 11 12 | 63.7
2'F-ANA at 1 2 3 5 6 13 14 15 | 48.4
2'F-ANA at 3 4 5 8 9 10 12 13 14 15 | 55.2
2'F-ANA at 4 7 8 9 10 11 12 14 | 64.4
2'F-ANA at 2 5 6 11 13 14 | 44.8
2'F-ANA at 1 2 4 6 7 9 10 13 14 | 68.2

Set 2
Target: Ras GTPase-activating protein-binding protein 1, full length (G3BP1, Homo sapiens, UniProt Q13283)
Chain of UniProt Q13283 (whole entry, looked up): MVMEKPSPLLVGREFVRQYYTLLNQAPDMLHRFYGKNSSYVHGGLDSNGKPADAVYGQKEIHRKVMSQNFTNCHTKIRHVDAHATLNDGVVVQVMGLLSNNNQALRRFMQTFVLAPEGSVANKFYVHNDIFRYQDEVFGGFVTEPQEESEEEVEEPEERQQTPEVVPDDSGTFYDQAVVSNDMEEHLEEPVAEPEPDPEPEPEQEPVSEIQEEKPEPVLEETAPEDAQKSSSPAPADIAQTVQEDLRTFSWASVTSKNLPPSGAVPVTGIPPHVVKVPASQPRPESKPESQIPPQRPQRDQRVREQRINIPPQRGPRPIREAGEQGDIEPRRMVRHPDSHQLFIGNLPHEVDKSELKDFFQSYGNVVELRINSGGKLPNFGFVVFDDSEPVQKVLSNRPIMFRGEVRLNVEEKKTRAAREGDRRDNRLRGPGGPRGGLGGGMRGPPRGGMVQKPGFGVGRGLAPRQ
Technique: RNA Bind-n-Seq
Molecule type: RNA
Matrix: in vitro
Tested at: 200 nM
Notes: whole 134-nt RNA, ends assumed
Added: 150 mM KCl
Reference: input library
Reading: higher = stronger binding
Strand | log2 enrichment
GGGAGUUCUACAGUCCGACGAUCCUCAAGUCCUGUGCUACACAUCGUAUGUACCGAAUCGGGCCGGGCCGGGCCGGGAAAGUAUUAUGUUACGCCGUUCGGAUCUGCACUUCCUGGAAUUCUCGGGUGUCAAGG | 0.187
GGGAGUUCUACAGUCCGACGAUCAGUCCUGUGCUACACAUCGUAUGUACCGAAUCGGGCCCCCGGCCCCCGGGGCCCCCGGAAAGUAUUAUGUUACGCCGUUCGGAUCUGCACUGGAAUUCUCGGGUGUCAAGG | -0.946
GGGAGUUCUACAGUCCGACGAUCUCCUGUGCUACACAUCGUAUGUACCGAAUCGGGGUUUUUGGGGUUUUUGGGGAAAGGGGAAAGUAUUAUGUUACGCCGUUCGGAUCUGCAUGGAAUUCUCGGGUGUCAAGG | 0.865
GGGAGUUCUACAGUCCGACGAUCACCAUGCAGGUGGGCAUCUUUCGGAAGUGGGGCAAGGGGGGGAUAGGGAGGGGGGUAACACUUUGGGAACAGGUGGUCCCAGGUCGUUUCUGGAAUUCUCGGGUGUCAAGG | 1.25
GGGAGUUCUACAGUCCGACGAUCCCUGUGCUACACAUCGUAUGUACCGAAUCGGGGUUUGGGGUUUUUGGGGUUUUUUUGGGGAAAGUAUUAUGUUACGCCGUUCGGAUCUGCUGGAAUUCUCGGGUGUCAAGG | 0.2
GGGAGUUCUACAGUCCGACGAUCAAGUCCUGUGCUACACAUCGUAUGUACCGAAUCGGGGAAAGGGGAAAGGAAAGGGGAAAGUAUUAUGUUACGCCGUUCGGAUCUGCACUUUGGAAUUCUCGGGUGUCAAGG | 0.32
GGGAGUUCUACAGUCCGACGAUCACCAUGCUGGUGGGCAUCUUUGGGAAGUGGGGCAAGGGGGGGAUAGGGAGGGGGGUAACACUUUGGGAACAGGUGGUCCCAGGUCGUUUCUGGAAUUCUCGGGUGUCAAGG | 1.29
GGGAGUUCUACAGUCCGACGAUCACCAUGCAGGUGGGCAUCUUUGGGAAGUGGGGCAAGGGGGGGAUUGGGAGGGGGGUAACACUUUGGGAACAGGUGGUCCCAGGUCGUUUCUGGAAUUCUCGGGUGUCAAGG | 1.31
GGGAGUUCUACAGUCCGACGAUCUAACUUUAGAGGAGGAUCUGAUGGAUAUGGCAGUGGACGUGGACUUGGGGAUGGCUAUAAUGGGUAUGGAGGAGGACCUGGAGGUGGCAAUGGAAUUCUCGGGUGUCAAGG | 0.283

Set 3
Target: Sal-like protein 4, full length isoform B (SALL4, Homo sapiens, UniProt Q9UJQ4-2, residues 1-616)
Technique: universal PBM
Molecule type: double-stranded DNA, one strand shown
Matrix: in vitro
Tested at: not given
Notes: 8-mer, flanks averaged, mean of replicates
Reading: higher = stronger binding
Strand | E-score
CTTATCAC | 0.0352
GCTAGTCC | -0.198
CAACGGCG | -0.288
AGCTGTTG | 0.0501
ATTAACGG | 0.115
CAATGAGC | -0.166
CTGACTTC | -0.241
CAAGAAAC | 0.0263
ACACCGCC | -0.169
GAACTGTA | 0.223
GGCACCGA | -0.216
CTAACCCA | -0.112
ACTAACCA | 0.0304
ATGGGTCC | -0.0721
GCGGGCTA | -0.212
ACGAATGC | 0.167
AAATTTAC | 0.32
GCAGATTA | 0.13
CCCCTCTA | -0.214
CCCCAGGA | -0.372
GTAGAATA | 0.272
ACCGTACA | 0.1

Set 4
Target: RNA binding protein fox-1 homolog 2, RRM domain, GST-SBP tag (RBFOX2, Homo sapiens, UniProt O43251-10, residues 100-194)
Technique: RNA Bind-n-Seq
Molecule type: RNA
Matrix: in vitro
Tested at: 365 nM
Notes: natural RNA segment, single round, ends assumed
Reference: no-protein control
Reading: higher = stronger binding
Construct (chain): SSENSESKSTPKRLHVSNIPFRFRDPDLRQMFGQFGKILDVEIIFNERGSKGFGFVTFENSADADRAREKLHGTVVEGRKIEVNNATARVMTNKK
Strand | RBNS enrichment (R)
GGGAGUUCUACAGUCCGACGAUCGCUUGAGUGCUAUGCAAAUAGUAAGUAGUGUAGUGGUGAUUUUUCUUUGCAUGUUGUGUGUGAUAUACCUAGCCAGAAAUAGAUGUGGCUUUUGUUUUGGGGGCAGAUUAUGGAAUUCUCGGGUGCCAA | 11.3
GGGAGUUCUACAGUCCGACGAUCCUGCUCUUAUCACCUAAACAGGACAGGAGAGCAGAUGCCCCAGCGCCUCUAGUAGAUGGUAGUGGUGGGGCUAGUGUGUGGCUGUUACCUGGGCCGCUCAAAUUCAUUCCUGGAAUUCUCGGGUGCCAA | 0.224
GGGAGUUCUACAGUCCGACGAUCUUAAGACUCACACUCCUGGCUCAGCAGUGGUUUUCCAGAAGGCCCAAAGAGCGGUGCCGGGCACCCCACGUCGCAGUGUCCGUUCCGGGCUUGGGAAGCUGGGGAGGUGGUGGAAUUCUCGGGUGCCAA | 0.487
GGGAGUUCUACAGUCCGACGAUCUGUUUGUGACUUAUGGGCUUAUUUUACAGACAAGAUGAGAGUUACCACUCUAAGAAAACAAACAGCAAGUCUCAGCAACAUAACAAGAAUACACAUUGUGAGGCAGAUGUUGGAAUUCUCGGGUGCCAA | 0.75
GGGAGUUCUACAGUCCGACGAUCCUUGUCCCAGGAGAACUGACCACAGUAGUUCCCACUGUAUAAUUUUUAUGUUGAGCCAAGAGAGAAUAUGUUGCACUUUAAACACGCUGUGUCCUGCUCCCUUUGAGUGUUGGAAUUCUCGGGUGCCAA | 0.997
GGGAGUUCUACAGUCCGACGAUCGAGCCUGACAUCAAGCGCCUCCUUAAAGUUGCCAUAUAGAUGUGAACUGCUCAACACACAGAUCUCCUACUCCAUCCAGUCCUGAGGAGCCUUAGGAUGCAGCAUGCCUUUGGAAUUCUCGGGUGCCAA | 2.37
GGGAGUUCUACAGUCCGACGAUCAAACUAUCAUUAUAAAUUGAAGUGUAUAUGCUCAGUAUAUUGGCAUAUAUGUGUAAUUCCAGCACUGGGAGGAGGACAAAGGGCAAUCAGGAGUUCAAGGCCAGCCUUAGUGGAAUUCUCGGGUGCCAA | 0.367
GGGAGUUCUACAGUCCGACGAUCCUUAGCAGGAACCUUUGCUAGCCACCUAGUGAAUGCCUGUAACAGGGUCUCUGAGCUGACUCUGUAUUAAGGGAAAUUCUGCACACCACAGGUGAGGCUUUUUUCAGAUCUGGAAUUCUCGGGUGCCAA | 0.242

A few entries again (set 1):
Modification | mean fluorescence intensity [a.u.]
2'F-ANA at 1 2 3 5 6 13 14 15 | 48.4
2'F-ANA at 3 4 5 8 9 10 12 13 14 15 | 55.2
2'F-ANA at 4 7 8 9 10 11 12 14 | 64.4
